Measurements collected from several papers.
Lines come from different studies, so protocols differ. In brackets after ≈: the same amount, converted by molar mass.

SMILES | target or system | assay | system | conditions | how to read | endpoint | result
CC(=O)NC[C@H]1CN(c2ccc(N3CCOCC3)c(F)c2)C(=O)O1 | Streptococcus pneumoniae |  | penicillin-resistant, 10 isolates | serum 75% |  | MIC50 | 4 µg/mL (≈ 11.9 µM)
Cn1cc(-c2ccc(-c3cncc(Cl)c3N3CCC4(CCNC4=O)CC3)cc2)cn1 | COLO 205 | gene expression, microarray, refers to: HIST1H4L mRNA |  | concentration not given, 2 h | baseline: untreated cells | log2 fold change | -1.48
Oc1ccccc1-c1n[nH]cc1-c1ccnc2ccccc12 | HRK1 (Candida albicans) | kinase binding, MIB/MS competition | Candida albicans lysate | 10 µM | baseline: DMSO | log2 fold change | 0.17
CC(C)NCC(O)c1ccc(O)c(O)c1 (centres unmarked) |  |  | ventricular cardiomyocytes, C57BL/6 mouse | dose not given, 0.176 s |  | sarcomere length | 1.51 µm
OC(CCN1CCCCC1)(c1ccccc1)C1CC2C=CC1C2 (centres unmarked) |  | resting-state EEG | healthy elderly humans | oral, 2 mg, eyes open, LS mean |  | EEG Beta2-power Fz-Cz | 0.9 µV²
CC(=O)N(C)[C@H]1CCN(C(=O)c2cnc3c(c2)C[C@](C)(c2ccc(F)cc2)N3)C1 | vanin activity | LC-MS/MS | human, plasma | 15 mg, 4 h post-dose, median | baseline: baseline | pantetheine increase | 1250%
CN[C@H](CC(C)C)C(=O)N[C@H]1C(=O)N[C@@H](CC(N)=O)C(=O)N[C@H]2C(=O)N[C@H]3C(=O)N[C@H](C(=O)N[C@H](C(=O)O)c4cc(O)cc(O)c4-c4cc3ccc4O)[C@H](O)c3ccc(c(Cl)c3)Oc3cc2cc(c3O[C@@H]2O[C@H](CO)[C@@H](O)[C@H](O)[C@H]2O[C@H]2C[C@](C)(N)[C@H](O)[C@H](C)O2)Oc2ccc(cc2Cl)[C@H]1O | Enterococcus faecalis |  | compound-intermediate | pH 8.5 |  | MIC50 | 4 µg/mL (≈ 2.76 µM)
c1coc(-c2n[nH]cc2-c2ccnc3ccccc23)c1 | orf19.4575 Candida albicans | kinase binding, MIB/MS competition | Candida albicans lysate | 10 µM | baseline: DMSO | log2 fold change | -0.14
